Published values collected from several papers.
Numbered parts are unrelated; each lists some results of a single study. Substitutions count along the parent as printed.

Set 1 — target: CCNA1, cyclin fold, Cln2 fusion (human); technique: yeast growth competition, sequencing; medium: yeast; notes: weak parent motif; reference: not given; direction: higher = stronger binding
Starting sequence: INSM1 docking peptide (human); PKAIRKLHFEDEV
`R5S`: “normalised enrichment score” 0.183.
`D11F`: “normalised enrichment score” 0.734.
`E12C`: “normalised enrichment score” 1.1.
`D11N`: “normalised enrichment score” 0.804.
Under “normalised enrichment score”, `F9R` is recorded as 0.199.
`K6G`: “normalised enrichment score” -0.00132.
`H8K`: “normalised enrichment score” 0.631.
For `F9S`, “normalised enrichment score” read 0.101.
For `E10G`, “normalised enrichment score” read 0.806.
Under “normalised enrichment score”, `I4G` is recorded as 0.16.
`H8Q` — result for “normalised enrichment score”: 0.608.
Under “normalised enrichment score”, `D11M` is recorded as 0.313.
`I4E`: “normalised enrichment score” 0.018.
`A3W` — result for “normalised enrichment score”: -0.691.
Under “normalised enrichment score”, `A3I` is recorded as 0.0745.
For `K6C`, “normalised enrichment score” read 0.166.
Under “normalised enrichment score”, `K2C` is recorded as 0.696.
`K2L` — result for “normalised enrichment score”: 0.148.
Under “normalised enrichment score”, `E10P` is recorded as 0.636.
`A3E`: “normalised enrichment score” -0.114.
For `H8T`, “normalised enrichment score” read 0.778.
Under “normalised enrichment score”, `I4K` is recorded as 1.76.
`L7G` — result for “normalised enrichment score”: -0.244.
`L7I`: “normalised enrichment score” 0.406.
`E12A` — result for “normalised enrichment score”: 0.615.

Set 2 — technique: protein-binding microarray; molecule type: double-stranded DNA, one strand shown; medium: in vitro; concentration: 250 nM; notes: 60-bp whole probe; with: salmon DNA 0.4 mg/ml; reference: random background probes; direction: higher = stronger binding; constant ends, left off below: GCCTAGCAC … GTCTTGATTCGCTTGACGCTGCTG
Target: Interferon regulatory factor 5, full length, phosphomimetic (IRF5, Homo sapiens, UniProt Q13568-2, residues 1-514, K96S/S451D/S453D/S456D/S462D)
With `TTAGGTATCCTGCTCCTTTAGTGCTAG` the log fluorescence was -0.122 z-score.
With `GACGATCTCAGTCTCGAGATGTGCTAG` the log fluorescence was 0.0334 z-score.
The log fluorescence of `TTATATTCCAGTTTCGATTAGTGCTAG` is reported as 9.95 z-score.
`TCACCTGTCCTTTTCTTACTGTGCTAG` gave a log fluorescence of 0.715 z-score.
The log fluorescence of `TTAGATATGGGGTTTCGATTAGTGCTA` is reported as 5.57 z-score.
With `TTAGATTTCAGTTCCGATAAGTGCTAG` the log fluorescence was 2.79 z-score.
The log fluorescence of `GACGGACTGCTACAGCTGACGTGCTAG` is reported as -0.356 z-score.
With `TTTGGTTTCGACTTTCGGTTAGTGCTA` the log fluorescence was 10.8 z-score.
`TTAGGTTTCGGACTCGGTTAGTGCTAG` has a log fluorescence of 5.21 z-score.
For `GACAGACTGGACACTGGGGACGTGCTA`, the log fluorescence was -0.77 z-score.
`GGGTCTCTGGGTCGGGCAGGGTGCTAG` gave a log fluorescence of -0.379 z-score.
`TTAGGTTTCGGGTAGCGGTTAGTGCTA` has a log fluorescence of 8.54 z-score.
The log fluorescence of `GAGGAACTGGGGTATCGAGACGTGCTA` is reported as 0.141 z-score.
With `TTAGATAGCGGGACTGGATTAGTGCTA` the log fluorescence was -0.182 z-score.
With `TTCAGTTTTCTTTTCCATTTGTGCTAG` the log fluorescence was 2.18 z-score.
With `GACGGTTTGGACTTTCGGGACGTGCTA` the log fluorescence was 3.97 z-score.
With `AGCAGGGCTGATGCTCCCCTGTGCTAG` the log fluorescence was -1.16 z-score.
The log fluorescence of `GACGATTCCGGTTTCGGGACGTGCTAG` is reported as 4.57 z-score.
The log fluorescence of `GACGATCTCAGTTTCGGGACGTGCTAG` is reported as 6.15 z-score.
For `TTAGGACTGGGTTCCGGTTAGTGCTAG`, the log fluorescence was 0.0985 z-score.

Set 3 — technique: aptamer microarray, sandwich; molecule type: DNA with 2'F-ANA; medium: in vitro; concentration: 200 nM; with: Cy3 exosite-II aptamer, 400 nM; direction: higher = stronger binding; strand: GGTTGGTGTGGTTGG
Target: Prothrombin, mature alpha-thrombin (F2, Homo sapiens, UniProt P00734)
Notes: whole 15-mer aptamer, many near background
Under “mean fluorescence intensity”, `2'F-ANA at 1 2 3 5 7 9 11 12 13` is recorded as 72.3 a.u.
For `2'F-ANA at 2 5 6 7 11 12 13`, “mean fluorescence intensity” read 88.9 a.u.
`2'F-ANA at 1 3 4 6 7 10 15` — result for “mean fluorescence intensity”: 61.7 a.u.
`2'F-ANA at 1 2 3 5 7 8 9 10 12 13 15` — result for “mean fluorescence intensity”: 48.2 a.u.
Under “mean fluorescence intensity”, `2'F-ANA at 2 3 4 5 7 8 9 10 11 12 13 14` is recorded as 55.7 a.u.
Under “mean fluorescence intensity”, `2'F-ANA at 1 2 4 5 8 9 15` is recorded as 61.5 a.u.
`2'F-ANA at 2 3 7 9 10 11 13 14 15` — result for “mean fluorescence intensity”: 266 a.u.
`2'F-ANA at 3 6 7 8 10 12 15` — result for “mean fluorescence intensity”: 637 a.u.
Under “mean fluorescence intensity”, `2'F-ANA at 2 3 5 6 7 10 11 14` is recorded as 51.8 a.u.
Under “mean fluorescence intensity”, `2'F-ANA at 2 3 4 7 8 11 13 15` is recorded as 535 a.u.
`2'F-ANA at 2 4 6 7 8 13 14 15`: “mean fluorescence intensity” 90.7 a.u.
`2'F-ANA at 2 3 7 8 10 11 15` — result for “mean fluorescence intensity”: 347 a.u.
`2'F-ANA at 2 3 8 9 12 15` — result for “mean fluorescence intensity”: 1020 a.u.
`2'F-ANA at 1 3 4 6 7 9 12 13 14 15` — result for “mean fluorescence intensity”: 65 a.u.
For `2'F-ANA at 1 2 3 4 5 6 10 11 13 14 15`, “mean fluorescence intensity” read 51 a.u.
`2'F-ANA at 3 6 8 10 14 15`: “mean fluorescence intensity” 427 a.u.
For `2'F-ANA at 1 3 5 8 9 10 12 13`, “mean fluorescence intensity” read 46.4 a.u.
Under “mean fluorescence intensity”, `2'F-ANA at 1 5 6 10 11 12 13 15` is recorded as 51.5 a.u.
Under “mean fluorescence intensity”, `2'F-ANA at 1 7 8 9 10 12 13 14 15` is recorded as 49.7 a.u.

Set 4 — target: JUNB, bZIP domain (human); technique: DHFR protein complementation; medium: yeast; reference: wild-type JUN-FOS pair; direction: higher = stronger binding
Notes: single substitutions, most at no-binding floor
Starting sequence: JUN, bZIP domain (human); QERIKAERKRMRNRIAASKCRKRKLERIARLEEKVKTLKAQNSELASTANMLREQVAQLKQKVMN; partner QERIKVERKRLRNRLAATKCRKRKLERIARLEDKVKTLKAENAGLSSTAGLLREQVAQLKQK
`L38R` gave a binding fitness of -1.49 natural log.
`T48W` gave a binding fitness of -1.46 natural log.
`S43V` has a binding fitness of -1.12 natural log.
`A40K` gave a binding fitness of -1.04 natural log.
`S43H` has a binding fitness of -1.02 natural log.
`S47T` has a binding fitness of -1 natural log.
The binding fitness of `T48H` is reported as -1.31 natural log.
`L52I` has a binding fitness of -1.48 natural log.
For `K34L`, the binding fitness was -0.951 natural log.
`N42P` has a binding fitness of -1.58 natural log.
With `S43I` the binding fitness was -0.943 natural log.
`T37K` has a binding fitness of -0.967 natural log.
`I28H` has a binding fitness of -1.38 natural log.
For `S43A`, the binding fitness was -0.804 natural log.
For `I28Y`, the binding fitness was -1.45 natural log.
With `I28E` the binding fitness was -1.25 natural log.

Set 5 — technique: RNA Bind-n-Seq; molecule type: RNA; medium: in vitro; concentration: 1 µM; notes: whole 134-nt RNA, ends assumed; with: 150 mM KCl; reference: input library; direction: higher = stronger binding
Target: Ras GTPase-activating protein-binding protein 1, C-terminal RGG region (G3BP1, Homo sapiens, UniProt Q13283)
UniProt Q13283, sequence (whole entry, looked up): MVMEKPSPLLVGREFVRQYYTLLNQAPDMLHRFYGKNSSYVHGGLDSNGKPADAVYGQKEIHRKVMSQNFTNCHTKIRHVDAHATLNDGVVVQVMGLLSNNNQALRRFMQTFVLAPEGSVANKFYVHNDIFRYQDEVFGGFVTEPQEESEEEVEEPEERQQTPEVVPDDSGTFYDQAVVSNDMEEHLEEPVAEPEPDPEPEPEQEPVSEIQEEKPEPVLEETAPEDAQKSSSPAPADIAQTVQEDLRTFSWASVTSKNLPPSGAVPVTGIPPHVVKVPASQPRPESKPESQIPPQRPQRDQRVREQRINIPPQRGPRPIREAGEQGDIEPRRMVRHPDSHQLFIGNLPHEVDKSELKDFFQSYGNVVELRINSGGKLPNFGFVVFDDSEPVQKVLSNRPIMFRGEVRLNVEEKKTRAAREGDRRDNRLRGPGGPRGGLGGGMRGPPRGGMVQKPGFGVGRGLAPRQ
Constant ends, left off below: GGGAGUUCUACAGUCCGACGAUC … UGGAAUUCUCGGGUGUCAAGG
With `CAUGUUGAAAGACAUGCUUUUAUUUUUUUGUAAAACAAUAUAGGAGCUGUGUCUACUAUUAAAAGUGAAACAUUUUGGCAUGUUUGUUAA` the log2 enrichment was -2.47.
For `ACCAUGCAGGUGGGCAUCUUUGGGAUGUGGGGCAAGGGGGGGAUAGGGAGGGGGGUAACACUUUGGGAACAGGUGGUCCCAGGUCGUUUC`, the log2 enrichment was -1.14.
`CCUGUGCUACACAUCGUAUGUACCGAAUCGGGGAAAAAGGGGUUUGGGGAAAAAAAGGGGAAAGUAUUAUGUUACGCCGUUCGGAUCUGC` has a log2 enrichment of 0.147.
The log2 enrichment of `ACCAUGCAGGUGGGCAUCUUUGGGAAGUGGGGCAAGGGGGGGAUAGGGAGGGGGGUAACACUUUGGGAACAGGUGGUUCCAGGUCGUUUC` is reported as 2.68.
`UCCUCAAGUCCUGUGCUACACAUCGUAUGUACCGAAUCGGGUGGUGGGUGGAAAGUAUUAUGUUACGCCGUUCGGAUCUGCACUUCCAGC` has a log2 enrichment of -0.154.
The log2 enrichment of `UCCUGUGCUACACAUCGUAUGUACCGAAUCAAACCCCCCCAAAUUUAAACCCCCCCAAAAAAGUAUUAUGUUACGCCGUUCGGAUCUGCA` is reported as 0.475.
`UGGGAGGUGGAUUUUGUUUAUUUUUUUAGCUCAUUUCCAGGGGUGGGAAUUUUUUUUCAAUAUGUGUCAUGAAUAAAGUUGUUUUUGAAA` gave a log2 enrichment of 3.33.
`CCUGUGCUACACAUCGUAUGUACCGAAUCGGGGUUUUUGGGGUUUGGGGUUUUUUUGGGGAAAGUAUUAUGUUACGCCGUUCGGAUCUGC` gave a log2 enrichment of 1.73.
For `UGGGAGGUGGAUUUUGUUUAUUUUUUUAGCUCAUUUCUAGGGGUGGGAAUUUUUUUUUAAUAUGUGUCAUGAAUAAAGUUGUUUUUGAAA`, the log2 enrichment was 3.8.
With `CAAGUCCUGUGCUACACAUCGUAUGUACCGAAUCGGGCCCGGGCCCGGCCCGGGGAAAGUAUUAUGUUACGCCGUUCGGAUCUGCACUUC` the log2 enrichment was -2.07.
The log2 enrichment of `UGGCCCUGGUGGCAUGCGGGGAGGAAGAGGUGGCCUCAUGGAUCGUGGUGGUCCCGGUGGAAUGUGCAGAGGUGGCCGUGGUGGAGACAG` is reported as 3.25.
`AGUCCUGUGCUACACAUCGUAUGUACCGAAUCGGGAGGGUUUUUGGGAAAAAAAGGGAAAGUAUUAUGUUACGCCGUUCGGAUCUGCACU` has a log2 enrichment of -0.499.
`GCAGGAAGUAAAAACAAAUGGAAAUGCUUCGGAUAGUGGCAGGGGUGCGGGUUGCUAAGGAAAGGGUGGGAUGGGAGUGGGUAAAGAGUU` has a log2 enrichment of 0.69.
`ACCAUGCAGGUGGGCAUCUUUGGGAAGUGGGGCAAGGGGGGGAUAGGGAGGGGGGUAAGACUUUGGGAACAGGUGGUCCCAGGUCGUUUC` gave a log2 enrichment of 2.3.

A few entries again (set 4):
`T48W` gave a binding fitness of -1.46 natural log.
`S43V` has a binding fitness of -1.12 natural log.
`A40K` gave a binding fitness of -1.04 natural log.
`S43H` has a binding fitness of -1.02 natural log.
`S47T` has a binding fitness of -1 natural log.
The binding fitness of `T48H` is reported as -1.31 natural log.
`L52I` has a binding fitness of -1.48 natural log.
For `K34L`, the binding fitness was -0.951 natural log.
`N42P` has a binding fitness of -1.58 natural log.
With `S43I` the binding fitness was -0.943 natural log.
`T37K` has a binding fitness of -0.967 natural log.
